Results from different studies.
Lines come from different studies, so protocols differ.
Target: 3-phosphoinositide-dependent protein kinase 1 (PDPK1, Homo sapiens, UniProt O15530)
Residues used in one study (O15530 1-556): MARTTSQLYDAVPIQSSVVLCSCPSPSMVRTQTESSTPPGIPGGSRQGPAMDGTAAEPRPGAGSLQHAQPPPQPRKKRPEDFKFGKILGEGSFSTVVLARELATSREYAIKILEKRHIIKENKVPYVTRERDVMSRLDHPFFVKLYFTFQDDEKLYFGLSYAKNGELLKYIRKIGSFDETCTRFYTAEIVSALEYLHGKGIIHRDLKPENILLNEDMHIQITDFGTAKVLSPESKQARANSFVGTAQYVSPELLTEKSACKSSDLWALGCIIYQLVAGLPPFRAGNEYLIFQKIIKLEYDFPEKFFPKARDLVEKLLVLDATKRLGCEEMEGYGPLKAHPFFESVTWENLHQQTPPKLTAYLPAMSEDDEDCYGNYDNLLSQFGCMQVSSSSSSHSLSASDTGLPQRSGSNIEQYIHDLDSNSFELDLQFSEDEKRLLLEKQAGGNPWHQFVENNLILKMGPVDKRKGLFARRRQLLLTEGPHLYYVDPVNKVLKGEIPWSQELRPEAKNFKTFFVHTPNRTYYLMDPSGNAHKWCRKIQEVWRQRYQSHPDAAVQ

Structure (SMILES)	assay	setting	how to read	endpoint	result
CN(C)[C@H]1C[C@@]23CC[C@@]4(O2)C(=CC[C@]2(C)[C@@H](c5ccc6ccncc6c5)CC[C@H]24)C=C3[C@@H](O)[C@@H]1O	ATP probe labelling, inhibitor, KiNativ profiling	0.1 µM		inhibition	-7.4%
N[C@H](C(=O)N1CCCC1)C1CCN(c2nccc3c(-c4ncc(Cl)cc4Cl)cccc23)CC1	kinase activity, inhibitor	10 µM, added: ATP 1 mM		inhibition	0.7%
CC(C)[C@H]1NC(=O)C[C@H]2/C=C/CCSSC[C@@H](NC1=O)C(=O)N[C@H](Cc1cccc3ccccc13)C(=O)NCC(=O)O2	enzyme activity, inhibitor	10 µM		inhibition	-3.7%
C[C@H](NCc1ccc(-c2ccc(C(F)(F)F)cc2)cc1)C(N)=O	cell-free assay, competition with immobilised ligand	1 µM		inhibition	2%
CCOC(=O)[C@@H]1Cc2c(cc([N+](=O)[O-])cc2[N+](=O)[O-])[C@H](O)[C@]12C(=O)Nc1ccc(Br)cc12	binding, competition with immobilised ligand	0.1 µM		remaining binding	48%
O=C1NC(=O)c2c1c1cc(F)c[n+]3c1c1c2c2cc(O)ccc2[n]1[Ru-4]312([N]=C=S)[S+]3CC[S+]1CC[S+]2CC3 (centres unmarked)	enzyme activity	100 nM, human enzyme, added: 10 µM ATP	reference: untreated	remaining activity	8%
Nc1ccc(/C=C/C(=O)N2CCc3c(oc4c(-c5ccc(F)cc5)cc(-c5ccc(C(=O)N6CCC(F)(F)CC6)cn5)cc34)C2)cn1	binding, competition with immobilised ligand	1 µM		remaining binding	96%
CS(C)(=O)=Nc1ccc(-c2ccc(-c3nc4cc(O[C@@H]5CO[C@H]6[C@@H]5OC[C@H]6O)[nH]c4cc3F)cc2)cc1	enzyme activity, inhibitor	10 µM		inhibition	-12%

A few entries again:
Structure (SMILES)	assay	setting	how to read	endpoint	result
O=C1NC(=O)c2c1c1cc(F)c[n+]3c1c1c2c2cc(O)ccc2[n]1[Ru-4]312([N]=C=S)[S+]3CC[S+]1CC[S+]2CC3 (centres unmarked)	enzyme activity	100 nM, human enzyme, added: 10 µM ATP	reference: untreated	remaining activity	8%
